Experimental data from different studies.
Protocols differ between the studies behind these lines. “And” joins repeats or separate records; there may be more than shown. ± gives the spread as reported.
Host: human

| Compound | assay | test system | conditions | measurement | value |
| --- | --- | --- | --- | --- | --- |
| Cc1ncnc2c1ccn2[C@@H]1C[C@H](Oc2cc(C(F)F)c(F)c3c2CNCC3)[C@@H](O)[C@H]1O |  | plasma | 8 mg once daily | AUC(tau) | 694 ng·h/mL and 1550 ng·h/mL |
| CS(=O)(=O)CCNCc1ccc(-c2ccc3ncnc(Nc4ccc(OCc5cccc(F)c5)c(Cl)c4)c3c2)o1 |  | plasma | 1250 mg/day, steady state, calculated | AUC(tau) | 41200 ng·h/mL |
| OC[C@H]1O[C@@H](c2ccc(Cl)c(Cc3ccc(O[C@H]4CCOC4)cc3)c2)[C@H](O)[C@@H](O)[C@@H]1O |  | plasma | oral, dose not given, EV treatment | AUC(tau) at steady state | 3040 ± 656 ng·h/mL |
| COCCc1ccc(OCC(O)CNC(C)C)cc1 (centres unmarked) | measured: sum of R and S enantiomers | plasma | oral, 100 mg single dose | AUC(tau) | 504 ng·h/mL |
| Cc1cc(OCCOCCC(F)(F)P(=O)(O)O)ccc1CCc1cnc2c(N)nc3cc(CCC(=O)O)ccc3c2c1 |  | serum | intratumoral, 400 µg every 2 weeks, cycle 2 day 15 | AUC(tau) | 29.1 ng·h/mL |
| C[C@@H](Nc1cc(F)cc(F)c1)c1cc(C(=O)N(C)C)cc2c(=O)cc(N3CCOCC3)oc12 |  |  | oral, 120 mg twice daily, dose-finding arm, geometric LSM, together with: abiraterone 1000 mg | AUC(tau) | 4410 ng·h/mL |
| CC(C)(C)OC[C@@H]1C(=O)NCCN1C(=O)C[C@H](N)Cc1cc(F)c(F)cc1F |  | plasma | oral, dose not given, EP treatment, together with: empagliflozin | AUC(tau) at steady state | 94.8 ± 21.9 ng·h/mL |
| N#Cc1ccc2c(c1)[C@H]1CCCN(C(=O)c3ccc4[nH]cnc4c3)[C@H]1C2 |  | plasma | oral, 240 mg once daily, steady state | AUC(tau) steady state | 142 µM·h |
